Measured values of several laboratories.
Lines come from different studies, so protocols differ. Several values in a cell are separate wells, animals, samples, runs or records. ± marks the error that the study gave. Values after ≈ are worked out from the molar mass of the structure shown.

Under “tail DNA (mean)”, `c1csc(CNc2cc[nH]n2)c1` is recorded as 2.4% (DNA damage, alkaline comet; Hsd:ICR(CD-1) mice, male, liver; oral gavage, 250 mg/kg/day, 3 days).
For `Cc1nc2cccc(OCC(C)(C)C(=O)NC(C)C)c2c(N)c1C(=O)O`, the AUClast ratio was 0.82 ± 0.3 (Sprague-Dawley rat, female, plasma; oral, 100 mg/kg, day 7 over day 1, 7-day repeated dosing; baseline: day 7 over day 1).
With `NS(=O)(=O)OC[C@@H]1C[C@@H](n2ccc3c(N[C@H]4CCc5ccccc54)ncnc32)C[C@@H]1O` the clearance was 19.2 L/h/m² (human males, plasma; median, BSA-adjusted).
`Cl.[2H]C([2H])([2H])CC(=O)c1cnc(NC(=O)C2CC2)cc1Nc1cccc(-c2ncn(C([2H])([2H])[2H])n2)c1OC` has a CL/F of 12.3 L/h (human, fasted, multiple dose; oral, 40 mg twice daily, tablet, day 14, geometric mean).
`Cc1c(-c2ccc(N3CCc4cccc(C(=O)Nc5nc6ccccc6s5)c4C3)nc2C(=O)O)cnn1CC12CC3(C)CC(C)(C1)CC(OCCNCC[C@H](O)CO)(C3)C2` has a plasma concentration of 9.48 ng/mL and 3.84 ng/mL (anaesthetized male beagle dog; iv infusion, 0.3 mg/kg/min, 45 min).
For `CC(C)(C(=O)N1CCOc2c(C#N)cncc2C1)C(F)F`, “subjects with adverse event” read 16.7% (measured: Polyuria; human; oral, 40 mg, CSF pharmacokinetic cohort).
For `COc1cc2nccc(Oc3ccc(NC(=O)c4cc5c(n(-c6ccccc6)c4=O)CCCC5=O)nc3)c2cc1OC`, “grade ≥3 Syncope patients” read 14.3% (relapsed or refractory AML; oral, 10 mg once daily).
For `C1=C/COCc2cc(ccc2OCCN2CCCC2)Nc2nccc(n2)-c2cccc(c2)COC/1`, “stability relative error” read -1.26% (rat plasma; 1200 ng/mL, 4 h, room temperature; baseline: nominal concentration).
`Cc1cccc(CNC(=O)c2cn(CCNC(=O)c3ccccc3Sc3c([N+](=O)[O-])ncn3C)c3cc4c(cc3c2=O)OC(F)(F)O4)n1` has an AUC(0-inf) of 329 ± 8.72 ng·h/mL (Sprague-Dawley rat, male, plasma; intravenous, 5 mg/kg of parent compound).
Under “participants with TEAE”, `Cc1ccc(Sc2ccccc2N2CCNCC2)c(C)c1` is recorded as 0% (measured: feeling abnormal; healthy adult men; oral, 10 mg daily, 12 days).
The half-life, mean of `C[C@H]1CN(C(=O)CC#N)[C@]12CCN(c1ncnc3[nH]ccc13)C2` is reported as 2.3 h (healthy adults, plasma; oral, 3 mg single dose).
`Cc1cc(Nc2cc3ncccc3c(N[C@@H]3C[C@H]4CC[C@@H](C3)N4CCC#N)n2)n[nH]1` gave an AUC(0-4) of 0.603 ng·h/mL (human, plasma; 20 mg, day 1, geometric mean).
`NC(=O)N1c2ccccc2CC(O)c2ccccc21` (centres unmarked) gave a clearance of 2.85 L/h (population PK modelling; human patients, plasma; weight-scaled, estimated exponents).
`CN1CCC[C@H](CN2c3ccccc3Sc3ccccc32)C1.Cl` has a Cmax of 5620 ng/g (female Wistar rat, kidney; oral, 16 mg/kg).
`CCOc1c([C@H](C)n2nc(C)c3c(N)ncnc32)cc(Cl)c(F)c1[C@@H]1CNC(=O)C1` has an ECG observations of 100% (measured: QTcF ≤450 ms; previously treated B-cell malignancy; oral, 45 mg once daily, overall population).
`OC[C@H]1O[C@@H](c2ccc(Cl)c(Cc3ccc(O[C@H]4CCOC4)cc3)c2)[C@H](O)[C@@H](O)[C@@H]1O`: “change in Non-HDL cholesterol” 3.23 mg/dL (Japanese type 1 diabetes patients, blood; 2.5 mg, day 28; baseline: baseline).
`N#CCC1CCN(c2nc(Nc3ccc(N4CCC(O)CC4)cc3)c3c(=O)[nH]ncc3n2)CC1` gave a t1/2 of 10.7 h (human, plasma; oral, 40 mg once daily, day 15).
Under “systolic blood pressure change”, `CCN1/C(=C/C(C)=O)Sc2ccc(F)cc21` is recorded as 104 ± 5.8% (cynomolgus monkey; oral, 10 mg/kg, 2 h post-dose; baseline: pre-dose).
`CN1C[C@H](COc2nccc3c(NCc4ccco4)cc(Cl)nc23)OC1=O` — result for general condition: “negative” (rat Crl:CD(SD) male; oral, 100 mg/kg, single dose).
`COc1cccc(OC)c1-c1cc(C(=O)NC2(C(=O)O)C3CC4CC(C3)CC2C4)nn1-c1ccc(C(=O)N(C)CCCN(C)CCCN(C)C(=O)CN2CCN(CC(=O)[O-])CCN(CC(=O)[O-])CCN(CC(=O)[O-])CC2)cc1C(C)C.[177Lu+3]` (centres unmarked) has a tumour-to-liver ratio of 7.67 (mouse, HT-29 xenograft; 4 h post injection, biodistribution; baseline: tumour over liver uptake).
For `O=C(N[C@H](Cc1c[nH]c2ccccc12)C(=O)Nc1ccncc1)c1ccc(-c2cc(C(F)(F)F)ccc2F)cc1F`, the concentration was 330 nM (Swiss Webster mouse, female, muscle; oral, 50 mg/kg, 8 h, 20% HPβCD vehicle).
`Cc1cc(NC2CCN(C(=O)OC3CCN(C(=O)/C=C/CN(C)C)C3)CC2)n2ncc(C(C)C)c2n1` (centres unmarked) — result for “patients with TEAE”: 2% (CTCAE v4.0, measured: Nausea; patients with advanced solid tumours; oral, dose not given, all schedules, grade 3 or higher).
`C=CC(=O)N(C)CCOc1c(N)ncnc1-c1cc(F)cc(NC(=O)c2ccc(C3CC3)cc2F)c1C` gave an AUC of 1080 ng·h/mL (human, whole blood; oral, 600 mg once daily, day 1).
With `CO[C@]1(C(=O)N[C@@H](C)c2ccc(-n3cc(F)cn3)nc2)CC[C@H](c2nc(C)cc(Nc3cc(C)[nH]n3)n2)CC1` the excreted radioactivity was 72.5% (humans, feces; oral, dose not given; baseline: dose).
`c1ccc(-c2nc(N3CCN(c4ccccn4)CC3)c3ccccc3n2)nc1` has a kinetic solubility of 70 µg/mL (≈ 190 µM) (Japanese Pharmacopoeia disintegration test solution 2; pH 6.8).
Under “back pain incidence”, `CNC(=O)c1ccc(-c2cnc3ncc(Cc4ccc5ncccc5c4)n3n2)cc1F` is recorded as 9% (HCC patients; oral, 600 mg twice daily, all grades RP2D expansion).
`Cc1ccc(C(=O)N(CCCN)C(c2nc3snc(C)c3c(=O)n2Cc2ccccc2)C(C)C)cc1` (centres unmarked): “patients with adverse events” 0% (measured: Pneumonia; human patients; intravenous, 16 mg/day, CTCAE grade ≥3).
The tissue concentration of `COc1ccc2c(=O)n(C)c(-c3ccccc3)nc2c1` is reported as 12 ng/g (male Sprague-Dawley rat, testis; oral, 30 mg/kg, 0.25 h).
For `CC[C@H](C)[C@H](NC(=O)[C@H](C)NC(=O)[C@H](CCCNC(=N)N)NC(=O)[C@H](CCCCN)NC(=O)[C@H](Cc1c[nH]c2ccccc12)NC(C)=O)C(=O)N[C@@H](CC(C)C)C(=O)N[C@@H](CCCNC(=N)N)C(=O)N[C@@H](C)C(=O)N[C@@H](CC(C)C)C(=O)N[C@@H](CC(C)C)C(=O)N[C@@H](CCC(N)=O)C(=O)N[C@@H](CCC(=O)O)C(N)=O`, the helicity was 17% (circular dichroism; 10 mM phosphate buffer; pH 7.4, 20 °C).
The treatment-related diarrhoea of `C=CCN1CC(=O)N2[C@@H](Cc3ccc(O)cc3F)C(=O)N(Cc3cccc(N4CC(N5CCN(CC)CC5)C4)n3)C[C@@H]2N1C(=O)NCc1ccccc1` is reported as 0% (advanced solid tumour patients; oral, 45 mg twice daily, grade ≥3, dose-escalation).
`CC=CC1CCC(C2CCC(CCC)CC2)CC1` (centres unmarked): “median fetal accumulation” 0.883 ng/g (rat, fetus; 5000 ng/mL in perfusate, high dose, mixture of 21 LCMs).
Under “treatment-emergent adverse events”, `O=C(Nc1nc2cccc(-c3ccc(CN4CCS(=O)(=O)CC4)cc3)n2n1)C1CC1` is recorded as 0% (measured: rheumatoid arthritis; rheumatoid arthritis patients; oral, 30 mg once daily, 4 weeks, any relatedness).
Under “respiratory rate score”, `O=C1NCCc2nc(OCc3cccc(F)c3)ccc21` is recorded as 0 (modified Irwin test; Sprague-Dawley rat, male; oral, 100 mg/kg, 4 h; higher = stronger change).
Under “incidence of treatment-related AEs”, `C[C@@H](c1ccc2nccn2c1)n1nnc2ncc(-c3cnn(C)c3)nc21` is recorded as 3% (measured: white blood cell count decreased; EGFR-mutant MET-altered NSCLC patients; oral, dose not given, AE grade ≥3, all).
For `Nc1ncnc2c1ncn2[C@H]1C[C@@H]2OP(=O)(O)OC[C@H]3O[C@@H](n4cnc5c(N)ncnc54)C[C@@H]3OP(=O)(O)OC[C@H]2O1`, the ALP was 187 ± 61.1 U/L (non-tumor-bearing mice, serum; intravenous, 1 mg/kg, toxicity study).
The thermodynamic solubility of `O=C(Cc1ccccc1[N+](=O)[O-])Nc1ccccc1C(=O)N1CCOCC1` is reported as 98.9 µM (≈ 36.5 µg/mL) (aqueous buffer; pH 7.4).
`Cn1cc(Nc2nccc(-c3ccc4c(c3)CN(C3COC3)CC[C@H]4NC(=O)c3cn(C(C)(C)C)nn3)n2)cn1` — result for “class-switched memory B cell change”: 51% (human, whole blood; 300 mg twice daily, day 14; baseline: pre-dose baseline).
`COc1cc(NC(=O)CSc2nncn2C)cc(OC)c1OC` gave a thermodynamic solubility of 4120 µM (≈ 1390 µg/mL) (aqueous buffer; pH 7.4).
Under “stability relative error”, `CCN(CC)Cc1ccc2cc(COC(=O)Nc3ccc(C(=O)NO)cc3)ccc2c1` is recorded as 102% (rat plasma; 5 ng/mL, 21 days, -80 °C; baseline: nominal concentration).
`CCCOc1ccc(NC(=O)CN2CCN(C)CC2)cc1-c1nc(CC)c(CC)c(=O)[nH]1` — result for “AUEC(0-4 h) systolic BP difference”: -15.3 h·mmHg (least-squares mean difference; healthy Chinese men; 10 mg, supine or semi-supine, together with: alcohol 0.5 g/kg; baseline: compound plus placebo).
For `COc1ccc([C@@H](O)c2cc(-c3ncnc4cc(N5CCOCC5)ccc34)c(F)cc2Cl)nn1`, “drug-related proctitis incidence” read 17% (locally advanced rectal cancer patients; 150 mg, together with: capecitabine and radiotherapy).
Under “ACTH level change”, `N#Cc1ccc2c(c1)[C@H]1CCCN(C(=O)c3ccc4[nH]cnc4c3)[C@H]1C2` is recorded as 2.2 pmol/L (human; 20 mg, day 15; baseline: baseline).
For `CNCc1ccc(-c2[nH]c3cc(F)cc4c3c2CCNC4=O)cc1`, “patients with adverse event” read 3.8% (measured: Asthenia/fatigue; human patients; oral, 600 mg twice daily, grade 3).
`CCCC[C@H]1CC[C@H](c2ccc(C#N)cc2)CC1` — result for “median fetal accumulation”: 1.65 ng/g (Sprague-Dawley rat, female, fetus; 5000 ng/mL in perfusate, 50 (unit not given), high dose, mixture of 21 LCMs).

Some of these lines once more:
`COc1cccc(OC)c1-c1cc(C(=O)NC2(C(=O)O)C3CC4CC(C3)CC2C4)nn1-c1ccc(C(=O)N(C)CCCN(C)CCCN(C)C(=O)CN2CCN(CC(=O)[O-])CCN(CC(=O)[O-])CCN(CC(=O)[O-])CC2)cc1C(C)C.[177Lu+3]` (centres unmarked) has a tumour-to-liver ratio of 7.67 (mouse, HT-29 xenograft; 4 h post injection, biodistribution; baseline: tumour over liver uptake).
For `O=C(N[C@H](Cc1c[nH]c2ccccc12)C(=O)Nc1ccncc1)c1ccc(-c2cc(C(F)(F)F)ccc2F)cc1F`, the concentration was 330 nM (Swiss Webster mouse, female, muscle; oral, 50 mg/kg, 8 h, 20% HPβCD vehicle).
`Cc1cc(NC2CCN(C(=O)OC3CCN(C(=O)/C=C/CN(C)C)C3)CC2)n2ncc(C(C)C)c2n1` (centres unmarked) — result for “patients with TEAE”: 2% (CTCAE v4.0, measured: Nausea; patients with advanced solid tumours; oral, dose not given, all schedules, grade 3 or higher).
`C=CC(=O)N(C)CCOc1c(N)ncnc1-c1cc(F)cc(NC(=O)c2ccc(C3CC3)cc2F)c1C` gave an AUC of 1080 ng·h/mL (human, whole blood; oral, 600 mg once daily, day 1).
